Measured values gathered from unrelated publications.
Compare with care: the assays were run in different laboratories. ± gives the spread as reported.
Target: Voltage-gated inwardly rectifying potassium channel KCNH2 (KCNH2, Homo sapiens, UniProt Q12809)
Chain of UniProt Q12809 (whole entry, looked up): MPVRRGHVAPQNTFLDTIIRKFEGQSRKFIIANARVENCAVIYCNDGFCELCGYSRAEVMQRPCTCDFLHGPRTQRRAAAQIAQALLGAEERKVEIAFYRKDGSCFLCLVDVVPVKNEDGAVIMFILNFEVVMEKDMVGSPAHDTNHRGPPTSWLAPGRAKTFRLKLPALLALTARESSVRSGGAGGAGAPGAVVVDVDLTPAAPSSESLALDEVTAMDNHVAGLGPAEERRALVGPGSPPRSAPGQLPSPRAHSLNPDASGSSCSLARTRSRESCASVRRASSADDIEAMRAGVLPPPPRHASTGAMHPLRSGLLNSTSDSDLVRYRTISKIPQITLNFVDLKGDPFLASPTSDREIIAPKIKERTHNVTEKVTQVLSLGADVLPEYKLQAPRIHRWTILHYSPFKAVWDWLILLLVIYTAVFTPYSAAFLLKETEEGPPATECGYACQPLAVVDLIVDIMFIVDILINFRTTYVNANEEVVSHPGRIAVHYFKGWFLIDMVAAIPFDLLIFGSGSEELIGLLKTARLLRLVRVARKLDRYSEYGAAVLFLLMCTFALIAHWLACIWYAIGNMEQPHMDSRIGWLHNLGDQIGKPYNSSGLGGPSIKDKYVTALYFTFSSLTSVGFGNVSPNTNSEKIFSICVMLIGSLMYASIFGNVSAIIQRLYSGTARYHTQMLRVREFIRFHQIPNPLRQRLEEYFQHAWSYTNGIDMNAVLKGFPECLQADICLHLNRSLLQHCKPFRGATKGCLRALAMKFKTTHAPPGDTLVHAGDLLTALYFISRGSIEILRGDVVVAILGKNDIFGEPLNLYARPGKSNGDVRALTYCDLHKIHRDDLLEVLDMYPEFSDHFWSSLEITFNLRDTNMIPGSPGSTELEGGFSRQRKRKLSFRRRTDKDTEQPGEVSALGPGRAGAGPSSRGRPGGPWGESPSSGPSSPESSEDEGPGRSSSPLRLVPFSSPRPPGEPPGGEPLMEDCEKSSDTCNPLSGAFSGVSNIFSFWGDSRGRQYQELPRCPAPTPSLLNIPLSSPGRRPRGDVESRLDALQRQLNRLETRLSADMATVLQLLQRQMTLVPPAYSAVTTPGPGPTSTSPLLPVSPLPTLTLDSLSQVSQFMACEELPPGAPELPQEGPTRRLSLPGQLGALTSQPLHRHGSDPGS

The inhibition of `Cc1cc(O)cc(O)c1C(=O)c1c2c3c(c(O)cc(C)c3oc1=O)C(=O)c1c(O)cc(O)cc1-2` is reported as 2 ± 2.3% (potassium current, inhibitor; HEK293; 2.5 µM, pH 7.4).
The IC50 of `C[C@@H](OC(=O)c1cccc(S(=O)(=O)Nc2ccc3c(c2)OCO3)c1)C(=O)c1c[nH]c2ccccc12` is reported as > 30 µM (ion current, inhibitor).
With `CCCc1cc2cc(-n3nc(C)c4c3CC(C)(C)CC4=O)cc(N[C@H]3CCOC3)c2c(=O)[nH]1` the IC50 was 41.5 µM (ligand displacement, FP).
With `CCN1/C(=C/C=C2\CCCC(/C=C/C3=[N+](CC)c4ccccc4C3(C)C)=C2NCCCCCCCCN2CCC(Nc3nc4ccccc4n3Cc3ccc(F)cc3)CC2)C(C)(C)c2ccccc21` the IC50 was 0.37 µM (ion current, inhibitor, patch clamp; CHO; pH 7.4).
Under activity, `O=C(O)c1ccc(/C=C2\SC(=S)N(Cc3cccc(C(F)(F)F)c3)C2=O)cc1` is recorded as “inactive” (ion current, patch clamp; CHO; 10 µM).
For `CCC(=O)N(C)c1ccc(Cl)c(Cl)c1`, the inhibition was 14% (ion current, inhibitor, patch clamp; HEK293; 50 µM).
The IC50 of `NS(=O)(=O)NCC(F)(F)c1ccccc1F` is reported as > 30 µM (ion current, inhibitor, patch clamp).
`CC(=O)N(c1ccccc1)c1nc(COC(=O)[C@H]2CC(=O)N(c3cccc4ccccc34)C2)cs1` gave an IC50 of > 30 µM (ion current, inhibitor).
`CCCOc1ccc(OC)c(F)c1C(=O)c1ccc(C(=O)N[C@@H]2CNC[C@H]2NC(=O)c2ccc3[nH]ncc3c2)cc1` has an IC50 of 4.4 µM (hERG tail current, inhibitor; 5 min).
`Cc1cccc(C)c1NC(=O)CC(C)NCc1cccc2ccccc12` (centres unmarked): “lowest inhibitory concentration” > 0.1 µM (potassium current, inhibitor, patch clamp; tsA201 transfected with KCNH2; 0.2% DMSO).
For `O=C(NCc1cccc(CN2CCCC2=O)c1)NCC(c1ccccc1)c1ccccc1`, the IC50 was > 30 µM (ion current, inhibitor).

Excerpt of the above:
The IC50 of `C[C@@H](OC(=O)c1cccc(S(=O)(=O)Nc2ccc3c(c2)OCO3)c1)C(=O)c1c[nH]c2ccccc12` is reported as > 30 µM (ion current, inhibitor).
